Measured values of several laboratories.
Every numbered part comes from another study and shows a few of its results, in no order. Changes are numbered by the printed parent chain.

Series 1
Target: Ras GTPase-activating protein-binding protein 1, RRM domain (G3BP1, Homo sapiens, UniProt Q13283)
UniProt Q13283, sequence (whole entry, looked up): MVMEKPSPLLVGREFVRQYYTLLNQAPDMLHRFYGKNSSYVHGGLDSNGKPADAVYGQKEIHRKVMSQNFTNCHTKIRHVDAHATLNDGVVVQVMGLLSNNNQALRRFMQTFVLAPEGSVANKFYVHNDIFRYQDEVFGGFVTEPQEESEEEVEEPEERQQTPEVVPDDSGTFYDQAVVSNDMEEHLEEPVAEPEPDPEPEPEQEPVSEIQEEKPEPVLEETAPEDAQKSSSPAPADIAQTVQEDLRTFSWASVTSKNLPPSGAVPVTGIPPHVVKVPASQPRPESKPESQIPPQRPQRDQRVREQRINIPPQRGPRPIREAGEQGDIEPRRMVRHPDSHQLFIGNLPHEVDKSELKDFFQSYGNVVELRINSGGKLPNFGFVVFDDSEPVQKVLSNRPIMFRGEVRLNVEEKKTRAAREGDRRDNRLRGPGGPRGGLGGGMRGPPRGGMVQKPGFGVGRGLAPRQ
Method: RNA Bind-n-Seq
Molecule type: RNA
Matrix: in vitro
Tested at: 1 µM
Setting: whole 134-nt RNA, ends assumed
Together with: 150 mM KCl
Reference: input library
Direction: higher = stronger binding
Measurement: log2 enrichment
Shared flanks, not repeated: GGGAGUUCUACAGUCCGACGAUC … UGGAAUUCUCGGGUGUCAAGG
CAAGUCCUGUGCUACACAUCGUAUGUACCGAAUCGGAAAAAGGAAAAAAAGGUGGAAAGUAUUAUGUUACGCCGUUCGGAUCUGCACUUC: -0.133
AAGUCCUGUGCUACACAUCGUAUGUACCGAAUCGGGUGGGUUUUUUUGGGAAAGGGAAAGUAUUAUGUUACGCCGUUCGGAUCUGCACUU: 0.722
UCAAGUCCUGUGCUACACAUCGUAUGUACCGAAUCGGGAGGGAGGGAAAAAGGGAAAGUAUUAUGUUACGCCGUUCGGAUCUGCACUUCC: 0.676
GUCCUGUGCUACACAUCGUAUGUACCGAAUCGGGUUUUUGGUUUUUGGGGUUUUUGGGGAAAGUAUUAUGUUACGCCGUUCGGAUCUGCA: -0.0141
CCUCAAGUCCUGUGCUACACAUCGUAUGUACCGAAUCGGGGAGGGAGGGAGGAAAGUAUUAUGUUACGCCGUUCGGAUCUGCACUUCCAG: 0.345
UGUUGAAAUGGGACAGUUGGCAGCGGCUCUGAUGAGCCCGAGAAGAGGCCUGCCCUUGGGUGCGGAGUCUCCCUCCGCACGAUGCUCCCA: -0.61
UAACUUUAGAGGAGGAUCUGAUGGAUAUGGCAGUGGACGUGGAUUUGGGGAUGGCUAUAAUGGGUAUGGAGGAGGACCUGGAGGAGGCAA: -0.414
UCCUGUGCUACACAUCGUAUGUACCGAAUCGGGGUGGGGAAAAAGGGGUUUUUUUGGGGAAAGUAUUAUGUUACGCCGUUCGGAUCUGCA: 0.814

Series 2
Target: CCNB1, cyclin fold, Cln2 fusion (human)
Method: yeast growth competition, sequencing
Matrix: yeast
Setting: weak parent motif
Reference: not given
Direction: higher = stronger binding
Measurement: normalised enrichment score
Starting sequence: GMNC docking peptide (human); KNAKRNLSSEFAN
KNAKRNLSSEFLN [A12L]: 0.0783
KNAKFNLSSEFAN [R5F]: 0.0926
KNAKPNLSSEFAN [R5P]: -0.32
KNQKRNLSSEFAN [A3Q]: -0.16
KNAKRNLTSEFAN [S8T]: -0.533
KNAKRFLSSEFAN [N6F]: 0.0615
KNAKRNLDSEFAN [S8D]: 0.228

Series 3
Target: ABI1, truncated, D143A, DHFR fusion (Arabidopsis thaliana)
Method: DHFR PCA, deep sequencing
Matrix: yeast
Setting: methotrexate growth selection, single substitutions
Together with: (+)-ABA 0.0091 µM
Reference: wild-type fitted maximum
Direction: higher = stronger binding
Measurement: relative binding score
Starting sequence: PYL1, truncated, DHFR fusion (Arabidopsis thaliana); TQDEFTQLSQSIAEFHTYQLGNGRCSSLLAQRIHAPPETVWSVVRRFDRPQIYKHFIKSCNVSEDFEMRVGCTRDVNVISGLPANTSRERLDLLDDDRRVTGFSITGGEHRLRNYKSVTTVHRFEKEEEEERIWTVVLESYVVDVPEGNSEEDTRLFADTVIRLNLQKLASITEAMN
L156C: 13.9%
D144Y: 4.33%
Q7E: 33.2%
V40Y: -9.05%

Mixed results
PhoQ, residues 284 288 289 292 302 303 SVTLVV — fold induction (PhoP, residues 12 14 15 18 19 IQSYL (Escherichia coli, UniProt P23836); Sort-seq, refers to: YFP reporter; E. coli; PhoQ-PhoP variant library, together with: 10 µM Mg2+; reference: high Mg2+ state, higher = stronger signaling): 6.99

Some of these lines once more (series 2):
KNAKRNLTSEFAN [S8T]: -0.533
KNAKRNLDSEFAN [S8D]: 0.228
